# Experimental data of several laboratories.
# Values joined by “and” are separate records of one study, mostly repeats; a detail may differ. Numbers after ± are the reported error.
# rep main protease: Replicase polyprotein 1ab, main protease (rep, Severe acute respiratory syndrome coronavirus 2, UniProt P0DTD1)
Structure (SMILES),target or system,assay,test system,conditions,measurement,value
Cc1cc(NC(=O)c2cc3c(=O)n4cccc(C)c4nc3n2C)ccc1Br,Severe acute respiratory syndrome coronavirus 2,"viral replication, inhibitor, qPCR",Vero C1008,,EC90,1.41 µM
CCCNC(=O)[C@H]1O[C@@H]1C(=O)N[C@H](C(=O)N1CCC[C@H]1C(=O)OC)[C@@H](C)CC,rep main protease,"reporter gene (Gaussia luciferase), inhibitor",,20 µM,inhibition,-2.88%
Nc1ncnc2c([C@@H]3N[C@H](CO)[C@@H](O)[C@H]3O)c[nH]c12,Lassa mammarenavirus,viral replication,"HeLa, Josiah",25 µM,inhibition,15%
CC(C)=CCc1c(O)ccc(C(=O)/C=C/c2ccc(O)cc2)c1O,Severe acute respiratory syndrome coronavirus 2,"cytopathic effect, inhibitor",Vero C1008,6.25 µM,inhibition,0%
COc1ncc(-c2cn([C@@H]3O[C@](F)(CO)[C@@H](O)[C@H]3O)cn2)cn1,Severe acute respiratory syndrome coronavirus 2,"viral replication, inhibitor",A549-ACE2,24 h,IC50,> 100 µM
CC(=O)c1cccc(NC(=O)c2cc3c(=O)n4ccccc4nc3n2C)c1,Severe acute respiratory syndrome coronavirus 2,"viral replication, inhibitor, qPCR",Vero C1008,1 µM,inhibition,92.5%
O=C(O[C@@H]1Cc2c(O)cc(O)cc2O[C@@H]1c1cc(O)c(O)c(O)c1)c1cc(O)c(O)c(O)c1,Severe acute respiratory syndrome coronavirus 2,"cytopathic effect, inhibitor",Vero C1008,1.562 µM,inhibition,0%
Cl.N[C@@H](Cc1ccccc1)C(=O)N1C/C(=C/c2ccc(Cl)c(Cl)c2)C(=O)/C(=C\c2ccc(Cl)c(Cl)c2)C1,rep main protease,"reporter gene (mKate2), inhibitor",,20 µM,inhibition,-1.39%
CC[C@H](C)[C@H](NC(=O)[C@H](CC(C)C)NC(=O)[C@H](Cc1c[nH]c2ccccc12)NC(=O)[C@H](CCC(N)=O)NC(=O)[C@@H](NC(=O)[C@H](Cc1ccccc1)NC(=O)[C@H](C)NC(=O)[C@H](CCCCNC(=O)COCCOCCNC(=O)COCCOCCNC(=O)CC[C@H](NC(=O)CCCCCCCCCCCCCCCCCCC(=O)O)C(=O)O)NC(=O)[C@H](CCC(N)=O)NC(=O)[C@H](C)NC(=O)[C@@H](NC(=O)[C@H](CCCCN)NC(=O)[C@H](CC(=O)O)NC(=O)[C@H](CC(C)C)NC(=O)C(C)(C)NC(=O)[C@@H](NC(=O)[C@H](CO)NC(=O)[C@H](Cc1ccc(O)cc1)NC(=O)[C@H](CC(=O)O)NC(=O)[C@H](CO)NC(=O)[C@@H](NC(=O)[C@H](Cc1ccccc1)NC(=O)[C@@H](NC(=O)CNC(=O)[C@H](CCC(=O)O)NC(=O)C(C)(C)NC(=O)[C@@H](N)Cc1ccc(O)cc1)[C@@H](C)O)[C@@H](C)O)[C@@H](C)CC)[C@@H](C)CC)C(C)C)C(=O)N[C@@H](C)C(=O)NCC(=O)NCC(=O)N1CCC[C@H]1C(=O)N[C@@H](CO)C(=O)N[C@@H](CO)C(=O)NCC(=O)N[C@@H](C)C(=O)N1CCC[C@H]1C(=O)N1CCC[C@H]1C(=O)N1CCC[C@H]1C(=O)N[C@@H](CO)C(N)=O,,,"healthy subjects, single ascending dose","0.5 mg, day 29",serum amylase,74.3 ± 20.7 U/L
Cn1cnc(Cn2c(=O)[nH]/c(=N\c3cc4cn(C)nc4cc3Cl)n(Cc3cc(F)c(F)cc3F)c2=O)n1,Severe acute respiratory syndrome coronavirus 2,viral replication,Vero C1008,12.5 µM,inhibition,100%
O=C(/C=C/c1ccc(O)c(O)c1/C=C/c1ccc(O)c(O)c1)O[C@H](Cc1ccc(O)c(O)c1)C(=O)O,Severe acute respiratory syndrome coronavirus 2,cytopathic effect,Vero C1008,0.7812 µM,inhibition,0%
O=C(Nc1ccccc1F)c1cc2c(=O)n3ccccc3nc2n1Cc1ccccc1,Severe acute respiratory syndrome coronavirus 2,"viral replication, inhibitor, qPCR",Vero C1008,,EC90,3.6 µM
COc1nc(N)ncc1-c1cn([C@@H]2O[C@](F)(CO[P@@](=O)(N[C@@H](C)C(=O)OC(C)C)Oc3ccccc3)[C@@H](O)[C@H]2O)cn1,Severe acute respiratory syndrome coronavirus 2,"viral replication, inhibitor",A549-ACE2,24 h,IC50,> 100 µM
C=C[C@@](C)(/C=C/c1ccc(O)cc1)CCC=C(C)C,Severe acute respiratory syndrome coronavirus 2,"cytopathic effect, inhibitor",Vero C1008,25 µM,inhibition,0%
CCc1ccc(NC(=O)c2cc3c(=O)n4ccccc4nc3n2C)cc1,Severe acute respiratory syndrome coronavirus 2,"viral replication, inhibitor, qPCR",Vero C1008,,EC90,3.44 µM
COc1ncncc1-c1cn([C@@H]2O[C@](F)(COC(=O)C(C)C)[C@@H](OC(=O)C(C)C)[C@H]2OC(=O)C(C)C)cn1,Severe acute respiratory syndrome coronavirus 2,"viral replication, inhibitor",A549-ACE2,24 h,IC50,39.8 µM
Cn1cnc(Cn2c(=O)[nH]/c(=N\c3cc4cn(C)nc4cc3Cl)n(Cc3cc(F)c(F)cc3F)c2=O)n1,,,"human, moderate renal impairment","oral, 375 mg","any TEAE, mild severity",12.5%
CCOc1nc(N)ncc1-c1cn([C@@H]2O[C@](F)(CO)[C@@H](O)[C@H]2O)cn1,Severe acute respiratory syndrome coronavirus 2,"viral replication, inhibitor",A549-ACE2,24 h,IC50,> 100 µM
CNC(=O)[C@@H](NC(=O)[C@H](CC(C)C)[C@H](O)C(=O)NO)C(C)(C)C,,prothrombin time,human platelet-poor plasma,"10 µM, added: GA venom",inhibition,17% and 18% and 17.5%

# Some of these lines once more:
Structure (SMILES),target or system,assay,test system,conditions,measurement,value
CC[C@H](C)[C@H](NC(=O)[C@H](CC(C)C)NC(=O)[C@H](Cc1c[nH]c2ccccc12)NC(=O)[C@H](CCC(N)=O)NC(=O)[C@@H](NC(=O)[C@H](Cc1ccccc1)NC(=O)[C@H](C)NC(=O)[C@H](CCCCNC(=O)COCCOCCNC(=O)COCCOCCNC(=O)CC[C@H](NC(=O)CCCCCCCCCCCCCCCCCCC(=O)O)C(=O)O)NC(=O)[C@H](CCC(N)=O)NC(=O)[C@H](C)NC(=O)[C@@H](NC(=O)[C@H](CCCCN)NC(=O)[C@H](CC(=O)O)NC(=O)[C@H](CC(C)C)NC(=O)C(C)(C)NC(=O)[C@@H](NC(=O)[C@H](CO)NC(=O)[C@H](Cc1ccc(O)cc1)NC(=O)[C@H](CC(=O)O)NC(=O)[C@H](CO)NC(=O)[C@@H](NC(=O)[C@H](Cc1ccccc1)NC(=O)[C@@H](NC(=O)CNC(=O)[C@H](CCC(=O)O)NC(=O)C(C)(C)NC(=O)[C@@H](N)Cc1ccc(O)cc1)[C@@H](C)O)[C@@H](C)O)[C@@H](C)CC)[C@@H](C)CC)C(C)C)C(=O)N[C@@H](C)C(=O)NCC(=O)NCC(=O)N1CCC[C@H]1C(=O)N[C@@H](CO)C(=O)N[C@@H](CO)C(=O)NCC(=O)N[C@@H](C)C(=O)N1CCC[C@H]1C(=O)N1CCC[C@H]1C(=O)N1CCC[C@H]1C(=O)N[C@@H](CO)C(N)=O,,,"healthy subjects, single ascending dose","0.5 mg, day 29",serum amylase,74.3 ± 20.7 U/L
Cn1cnc(Cn2c(=O)[nH]/c(=N\c3cc4cn(C)nc4cc3Cl)n(Cc3cc(F)c(F)cc3F)c2=O)n1,Severe acute respiratory syndrome coronavirus 2,viral replication,Vero C1008,12.5 µM,inhibition,100%
